Published values collected from several papers.
Every numbered part comes from another study and shows a few of its results, in no order.

Series 1
Target: RING finger protein unkempt homolog, zinc fingers 1-6, GST-SBP tag (UNK, Homo sapiens, UniProt Q9C0B0, residues 30-357)
Technique: RNA Bind-n-Seq
Molecule type: RNA
Sample: in vitro
Concentration: not given
Notes: RNA with constant flanks, human and mouse sites, ends assumed
Reference: input RNA pool
Direction: higher = stronger binding
Quantity: bound/input enrichment
All sequences stand within: GGGAGUUCUACAGUCCGACGAUC … CAACAGAGGAUUGAGCAUCA
Target sequence (chain): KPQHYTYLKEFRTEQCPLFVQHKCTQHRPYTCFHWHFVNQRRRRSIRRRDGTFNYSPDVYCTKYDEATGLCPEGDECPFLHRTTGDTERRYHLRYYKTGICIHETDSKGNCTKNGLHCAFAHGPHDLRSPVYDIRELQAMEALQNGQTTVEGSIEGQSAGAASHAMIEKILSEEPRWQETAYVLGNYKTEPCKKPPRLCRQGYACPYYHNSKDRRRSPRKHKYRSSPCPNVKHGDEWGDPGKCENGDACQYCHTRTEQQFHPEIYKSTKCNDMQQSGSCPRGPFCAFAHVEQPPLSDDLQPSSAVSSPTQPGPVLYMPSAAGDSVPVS
AUUGAGAAGGCUGGAAAUUCCAGCAACGCAACACAAGUAGUCACGGACAUUGGAAUUACUGACGCUACAGUCACUGAAUUAAUACCUGGCUCAUCAUACACAGUGGAGAUCUUUGCACAA: 0.138 ratio
AGCACCUACUGUGUUCUCAACACCGUGCCACCUAUAGAAGAUGAUCAUGGGAACAGCAAUAGUAGUCAUGUAAAAAUCUUUUUACCGAAAAAGCUGCUUGAAUGUCUGCCGAAAUGUUCA: 0.123 ratio
AGAGCUGGUCUUCUUGACACCUUUUCCAAUAUCAGCUUUGCAGAAGGAAACUUAAAUUUCAGUUCAGGGCAUGACCUUCAUGACCUUGCAGAACUUCUUCACUUUCCAGGUUAAGUAAAG: 0.18 ratio
GACCGCAUCGUGCCCGUGGACAUCUACAUCCCAGGCUGCCCACCUACGGCCGAGGCCCUGCUCUACGGCAUCCUGCAGCUGCAGAGGAAGAUCAAGCGGGAGCGGAGGCUGCAGAUCUGG: 0.0345 ratio
ACGCCAAACAUGGCGUGUUCCUAGAAGCCGCUUUCGGCAUCAGUAGGCGGCGGCGUGGGGUCUGGCAGCGUGGGGAGAGGGACCAACCGACGCCACUUCGUGUUGGGAAGUGGGAGCGGG: 0.404 ratio
AGUCAGAAGAAGAAAGCUUUAGCAGCAGCCCUUGCCACAGCUCAAGAGUAUUCAGAAAUAAGUAUGGAGCAAAAAAAAUUACAGGAAGCUUUAUCAAAAGCAGCUGGAAAAAAGAAUAAA: 0.401 ratio
GGGAGCUAUGAUCCACAAAAACAACUUAUUAUUGAAGAUCCCUAUUAUGGGAAUGACUCUGACUUUGAGACGGUGUACCAGCAGUGUGUCAGGUGCUGCAGAGCGUUCUUGGAGAAGGCC: 0.264 ratio
UGCGCUGUCUGCCCUUCUGGAAACCCAACCUGCCAUCAGCUGUAAAUCAGAUUCUUCACAUUCCAGGUGUAAGCUUUCCCUUCCCUGUGACUCUCAGUCCCUAGCUACAUGGUCAGGGGG: 0.224 ratio
CAGCCUAUGGCCCAGGCCGCCUUGGGUAUUUCUGCUCAAGGUAACCACAUCCCUCUUUAAAAAUUCCGCCGAAAAAGAGAAGACGCUUUACCCGACUCUUUGGGCCGUUAUCUCACGGCG: 0.18 ratio
UUCUUCUUCUUUGACUCAGUUCAAGUAGUUUUUACAAUAUGUACAGCAGUUCUUGCAACGAUAGCUUUUGCUUUUCUUCUCCUCCCGAUGUGCCAGUAUUUAACAAGACCCUGCUCACCU: 12.4 ratio
CCGUUUCUAGUAUAUUCCUGUAAAUGUCAGUUACUGAAAAUGAGUCCAUUGUAAGUAGUUUAGCUUGUUUUUUGCAAUGCCGGCCUCAACACCACAGAGUAAAAAAAAAAAAAAAACGGU: 3.23 ratio

Series 2
Target: Histone acetyltransferase KAT6A, both winged helices, GST fusion (KAT6A, Homo sapiens, UniProt Q92794, residues 1-181)
Technique: protein binding microarray
Molecule type: double-stranded DNA, one strand shown
Sample: in vitro
Concentration: not given
Notes: 8-mer, flanks averaged, mean of 2 arrays, mostly near background
Reference: not given
Direction: higher = stronger binding
Quantity: E-score
Residues (chain): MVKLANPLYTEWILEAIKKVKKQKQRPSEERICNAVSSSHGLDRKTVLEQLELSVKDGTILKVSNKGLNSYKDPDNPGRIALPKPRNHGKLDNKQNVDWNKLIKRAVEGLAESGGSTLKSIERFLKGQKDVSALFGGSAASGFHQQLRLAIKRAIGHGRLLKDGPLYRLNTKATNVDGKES
ACTGTCTA: -0.0862
GTTTATCA: 0.0789
ACACGGGG: 0.201
CTATGTAA: -0.116
GTTTCACA: 0.0614
CACGGGGA: 0.143
CTTGGACA: -0.0993
ACATGTCA: 0.0601
ACGACACG: 0.0953
AAGGCTAA: -0.103
CAATCATG: -0.118
AGCGCCCA: 0.0262
CTATTCCA: -0.13
CAAATATC: -0.0905
GACTTTAC: 0.0108
CAGGATCA: -0.159

Series 3
Target: RNA binding protein fox-1 homolog 2, RRM domain, GST-SBP tag (RBFOX2, Homo sapiens, UniProt O43251-10, residues 100-194)
Technique: RNA Bind-n-Seq
Molecule type: RNA
Sample: in vitro
Concentration: 365 nM
Notes: natural RNA segment, single round, ends assumed
Reference: no-protein control
Direction: higher = stronger binding
Quantity: RBNS enrichment (R)
All sequences stand within: GGGAGUUCUACAGUCCGACGAUC … UGGAAUUCUCGGGUGCCAA
Construct (chain): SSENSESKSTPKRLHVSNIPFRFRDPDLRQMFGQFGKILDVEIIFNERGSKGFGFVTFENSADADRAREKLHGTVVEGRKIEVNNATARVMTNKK
UCCUCCUCAUCAGCUAUUUUACCCAUCUCAGAACGUCCUGUGUCUCCAUGUAGGAGAGUGGCUCUCUCAGAUCUCUCAGGGCGUCUGGUUAUAGGGAAACAAGUGGAGCA: 0.642
CCAAGUUAAACCCCUGCUUUCUGUCCUUUGCACCUUUUGCGUGAACAGAAUAUGCAUUAUUAAAGCAAAAAUAAAUAAAAGUAAAAUGCAAAUGAAAACAAGGGAGGGAA: 0.421
CUCCCAUUGCCCAAGAGAGAGGGCAGGGAACAGGCUACUGUCCUUCCCUGUGGAAUUGCCGAGAAAUCUAGCACCUUGCAUGCUGGAUCUGGGCUGCGGGGAGGCUCUUU: 0.795
UUAAUGGGAUUUCAUGGGGUUUGGUUGUGCUGAUAGGGUAAGGGGAGGCUGCUUUCUGCCCUUCUCCCCACUCCCAUCUGAUUUACUUAAUUCAGUCUCAGCUGCUGAAA: 0.324
UGGGUUUUGUAGCAUUUUUAUUAAUAUGGUGACUUUUUAAAAUAAAAACAAACAAACGUUGUCCUAACUCUUGCAUAGACUUGACUGCCUAGGGUGAUGCCUUGCUUAUA: 1.04
UUGCCUGCCACAGAGCAAAAGGAGUGAGUGGAACAGAGUUGCUUCUUACUAGGAGCACAUUCUUUGCCUGCCUUCCCUUCAUCCUAUCCUCUUUGCUUGCUCUCACCUCA: 15.4
CUGGAAAGAACUGAGGCCAGACGAUUUCUGUGUUUGUCUCUUUGGCUUUUGUGUUAUAAGGAGGCAGGCCUUUCGAGGCCAUCUUACAUUGUUUGGUUCCAGAAAACCAA: 0.309
UGGGACAGGCUUAGGGGAAAGAGCUUGUCCUAUCUCAGGAACAAAAUUAUAGGCUGUGGGCAGAGGGUCUGAAAGGUGGGCUUUGGGGUAGUGCCCAAGCCUGGUCGUGU: 1.56
GACUGGGACCAGGCACCAGGCAGGGUCUAGAAGGCUGUGGUGAGGGAAGACGCCUUUCUCCUCCAACCCAACCUCAUCCUCCUUCUUCAGGGACUUGGGUGGGUACUUGG: 0.293
UGCAGACCUUUACCUGUGAGCCCCUAGGCCAAGGCUGUAGCAUUAAAUGACUAUUUAUUCUUCUGCCCCCCUCUAGAGCACUCUUCUUGGCCAGACCCUCUGUCCAAGGC: 0.258
CCAGCCUGGUGCGGCUGGGAUCACACUUCAAGGAUGGACAGUGGUGUCUCUUUGGGAGAUGGUGUUCAAGUGGGAUACCUAAGUCUUCCCGUGGCUAGAUCCAGAGCAGA: 0.451
CCUAGGGUUUCGAUGUGCUGUGUUCUCAUCCUACAGCUGGUUUGGUAAUGAUCUGCAAGUCCCGGAGAGCAACAGCACAGCUCCGCCUGACGCUCUCAUUAAAAUCCAUG: 0.757

Series 4
Target: Ras GTPase-activating protein-binding protein 1, full length (G3BP1, Homo sapiens, UniProt Q13283)
Sequence of UniProt Q13283 (whole entry, looked up): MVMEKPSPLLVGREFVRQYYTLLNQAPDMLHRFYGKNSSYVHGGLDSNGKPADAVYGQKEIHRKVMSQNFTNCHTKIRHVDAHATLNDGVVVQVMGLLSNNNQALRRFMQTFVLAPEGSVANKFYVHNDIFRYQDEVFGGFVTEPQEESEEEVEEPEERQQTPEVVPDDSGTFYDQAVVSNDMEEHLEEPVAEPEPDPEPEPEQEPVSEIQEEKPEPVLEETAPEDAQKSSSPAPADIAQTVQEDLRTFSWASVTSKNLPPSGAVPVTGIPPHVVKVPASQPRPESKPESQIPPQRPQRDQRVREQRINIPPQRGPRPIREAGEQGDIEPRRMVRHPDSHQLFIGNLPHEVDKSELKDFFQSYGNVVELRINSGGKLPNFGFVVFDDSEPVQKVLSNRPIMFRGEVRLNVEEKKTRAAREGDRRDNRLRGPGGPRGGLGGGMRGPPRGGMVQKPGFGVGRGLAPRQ
Technique: RNA Bind-n-Seq
Molecule type: RNA
Sample: in vitro
Concentration: 200 nM
Notes: whole 134-nt RNA, ends assumed
With: 150 mM KCl
Reference: input library
Direction: higher = stronger binding
Quantity: log2 enrichment
All sequences stand within: GGGAGUUCUACAGUCCGACGAUC … UGGAAUUCUCGGGUGUCAAGG
AAGUCCUGUGCUACACAUCGUAUGUACCGAAUCGGGAAAAAGGGUUUUUGGGAGGGAAAGUAUUAUGUUACGCCGUUCGGAUCUGCACUU: 0.256
CACAGACAACACGCACCCACACAGACACAGAGGGAAAAGGUUGGGAUGGGGACAGGGUGCACAGCAGGGCGGGGUAGGACCCCAGCCCCU: 1.58
UGGGAGGUGGAUUUUGUUUAUUUGUUUAGCUCAUUUCCAGGGGUGGGAAUUUUUUUUUAAUAUGUGUCAUGAAUAAAGUUGUUUUUGAAA: 0.155
AGUCCUGUGCUACACAUCGUAUGUACCGAAUCAAACCCCCAAAUUUAAAUUUUUAAAAAAGUAUUAUGUUACGCCGUUCGGAUCUGCACU: -0.186
ACCAUGCAGGUGGGCAUCUUUGGGAAGUGGGGCAAGGGGGGGAUAGGGAGGGGGGUAAGACUUUGGGAACAGGUGGUCCCAGGUCGUUUC: 1.25
GCAGGAAGUAAAAACAAAUGGAAAUGCUUCGGAUAGUGGCAGGGAAAGGGGUUGCUAAGGAAAGGGUGGGAUGGGAGUGGGUAAAGAGUU: 0.874
CCUGUGCUACACAUCGUAUGUACCGAAUCGGGAAAAAAGGAAAAAAGGGGAAAAAAGGGGAAAGUAUUAUGUUACGCCGUUCGGAUCUGC: -0.582
GGUAAACGCCCUGCAGAAGAUAUGGAAGAGGAACAAGCAUUUAAAAGAUCUAGAAACACUGAUGAGAUGGUUGAAUUACGCAUUCUGCUU: -0.14
AGUCCUGUGCUACACAUCGUAUGUACCGAAUCGGAAAAAGGGAAAAAGGAAAAAGGGAAAGUAUUAUGUUACGCCGUUCGGAUCUGCACU: -1.18
GCAGGAAGUAAAAACAAAUGGAAAUGCUUCGGAUAGUGGCAGGGGUGGGGGUCGCUAAGGAAAGGGUGGGAUGGGAGUGGGUAAAGAGUU: 0.624
UGGCCCUGGCGGCAUGCGGGGAGGAAGAGGUGGCCUCAUGGAUCGUGGUGGUCCCGGUGGAAUGUUCAGAGGUGGCCGUGGUGGAGACAG: 0.0984
UCAAGUCCUGUGCUACACAUCGUAUGUACCGAAUCGGGGAAGGGGAAGGAAGGGGAAAGUAUUAUGUUACGCCGUUCGGAUCUGCACUUC: 0.463
CCUGUGCUACACAUCGUAUGUACCGAAUCGGGUUUUUGGGAAAAAAAGGGAAAAAAAGGGAAAGUAUUAUGUUACGCCGUUCGGAUCUGC: -0.833
GUGGACAACGCGUACUGGCUGUGGACUUUCCAGGGACGCCUCCUGCAGAAGAACAACAAGGACCGCUUCUGCCAGCUGCUGUGGCGGCCC: -1
